Results of several laboratories.
Each line is one published result; not all experiments were run side by side.
TMEM97: Sigma intracellular receptor 2 (TMEM97, Homo sapiens, UniProt Q5BJF2)
Chain of UniProt Q5BJF2 (whole entry, looked up): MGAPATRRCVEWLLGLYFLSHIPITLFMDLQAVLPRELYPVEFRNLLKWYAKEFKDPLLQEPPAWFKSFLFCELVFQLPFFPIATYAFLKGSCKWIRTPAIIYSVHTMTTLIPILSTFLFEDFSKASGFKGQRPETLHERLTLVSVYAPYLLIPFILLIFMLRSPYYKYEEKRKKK
CA12: Carbonic anhydrase 12 (CA12, Homo sapiens, UniProt O43570)
Chain of UniProt O43570 (whole entry, looked up): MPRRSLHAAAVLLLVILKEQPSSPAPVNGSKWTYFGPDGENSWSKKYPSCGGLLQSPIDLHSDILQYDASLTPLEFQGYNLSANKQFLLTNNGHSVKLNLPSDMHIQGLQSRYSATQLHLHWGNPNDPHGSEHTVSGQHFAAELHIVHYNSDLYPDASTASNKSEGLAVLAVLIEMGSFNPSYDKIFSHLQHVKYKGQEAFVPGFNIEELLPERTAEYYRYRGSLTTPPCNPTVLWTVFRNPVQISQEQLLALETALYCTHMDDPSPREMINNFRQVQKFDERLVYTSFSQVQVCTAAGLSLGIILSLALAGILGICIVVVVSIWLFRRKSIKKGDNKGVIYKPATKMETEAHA
Penicillin-binding protein 2X: Penicillin-binding protein 2X (Streptococcus pneumoniae R6, UniProt P59676)
sapA: sapA (Haemophilus influenzae, UniProt Q4QL73)
PFF0160c: Dihydroorotate dehydrogenase (quinone), mitochondrial (PFF0160c, Plasmodium falciparum, UniProt Q08210)
PFF0160c E182D: Dihydroorotate dehydrogenase (quinone), mitochondrial (PFF0160c, Plasmodium falciparum, UniProt Q08210, E182D)
Chain of UniProt P35363 (whole entry, looked up): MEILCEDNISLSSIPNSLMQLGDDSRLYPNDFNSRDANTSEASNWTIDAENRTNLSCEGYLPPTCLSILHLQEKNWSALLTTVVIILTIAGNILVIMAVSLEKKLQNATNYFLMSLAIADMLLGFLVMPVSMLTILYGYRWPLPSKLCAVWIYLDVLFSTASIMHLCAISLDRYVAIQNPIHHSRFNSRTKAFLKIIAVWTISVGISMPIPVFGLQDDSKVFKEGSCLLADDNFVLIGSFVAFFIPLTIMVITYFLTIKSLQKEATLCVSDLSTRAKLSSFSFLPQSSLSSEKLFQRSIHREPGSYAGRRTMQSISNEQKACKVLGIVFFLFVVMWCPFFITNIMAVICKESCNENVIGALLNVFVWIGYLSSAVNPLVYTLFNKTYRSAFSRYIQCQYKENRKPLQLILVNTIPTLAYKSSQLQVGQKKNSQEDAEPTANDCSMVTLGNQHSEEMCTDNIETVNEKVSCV
Chain of UniProt P35414 (whole entry, looked up): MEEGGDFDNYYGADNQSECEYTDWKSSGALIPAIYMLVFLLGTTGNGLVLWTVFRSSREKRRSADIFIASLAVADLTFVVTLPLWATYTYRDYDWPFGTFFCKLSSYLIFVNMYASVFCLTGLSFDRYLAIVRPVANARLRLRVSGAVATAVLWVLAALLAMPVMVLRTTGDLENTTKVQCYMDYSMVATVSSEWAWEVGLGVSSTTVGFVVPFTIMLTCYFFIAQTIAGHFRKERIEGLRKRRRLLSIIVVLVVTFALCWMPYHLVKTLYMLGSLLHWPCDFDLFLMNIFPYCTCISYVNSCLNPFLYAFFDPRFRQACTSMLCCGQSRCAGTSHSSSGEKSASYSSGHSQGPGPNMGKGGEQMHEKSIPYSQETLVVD
Chain of UniProt P07711 (whole entry, looked up): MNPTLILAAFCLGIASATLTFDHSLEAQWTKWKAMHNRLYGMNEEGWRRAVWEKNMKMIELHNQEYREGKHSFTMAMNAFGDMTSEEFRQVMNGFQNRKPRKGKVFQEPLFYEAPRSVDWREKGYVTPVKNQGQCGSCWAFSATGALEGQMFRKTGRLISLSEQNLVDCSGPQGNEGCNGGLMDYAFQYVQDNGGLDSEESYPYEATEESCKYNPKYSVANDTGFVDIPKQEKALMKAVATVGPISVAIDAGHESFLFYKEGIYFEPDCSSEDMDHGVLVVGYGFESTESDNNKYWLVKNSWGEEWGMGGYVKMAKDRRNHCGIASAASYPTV
Chain of UniProt Q9BYE2 (whole entry, looked up): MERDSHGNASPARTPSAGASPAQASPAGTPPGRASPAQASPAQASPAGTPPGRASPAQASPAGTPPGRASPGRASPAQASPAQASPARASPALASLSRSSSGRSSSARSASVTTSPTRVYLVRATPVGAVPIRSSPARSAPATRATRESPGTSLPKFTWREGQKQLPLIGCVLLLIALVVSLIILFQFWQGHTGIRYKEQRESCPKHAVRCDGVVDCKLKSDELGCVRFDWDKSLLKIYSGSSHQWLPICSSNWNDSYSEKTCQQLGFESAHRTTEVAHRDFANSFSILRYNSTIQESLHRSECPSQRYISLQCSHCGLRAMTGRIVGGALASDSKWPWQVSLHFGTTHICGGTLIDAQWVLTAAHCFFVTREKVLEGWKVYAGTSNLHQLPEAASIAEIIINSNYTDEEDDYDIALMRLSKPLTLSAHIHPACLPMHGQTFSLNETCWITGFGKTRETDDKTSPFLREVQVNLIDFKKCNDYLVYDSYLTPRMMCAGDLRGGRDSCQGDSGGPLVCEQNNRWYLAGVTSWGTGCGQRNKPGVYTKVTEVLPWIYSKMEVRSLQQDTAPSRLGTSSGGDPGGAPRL
Chain of UniProt P80192 (whole entry, looked up): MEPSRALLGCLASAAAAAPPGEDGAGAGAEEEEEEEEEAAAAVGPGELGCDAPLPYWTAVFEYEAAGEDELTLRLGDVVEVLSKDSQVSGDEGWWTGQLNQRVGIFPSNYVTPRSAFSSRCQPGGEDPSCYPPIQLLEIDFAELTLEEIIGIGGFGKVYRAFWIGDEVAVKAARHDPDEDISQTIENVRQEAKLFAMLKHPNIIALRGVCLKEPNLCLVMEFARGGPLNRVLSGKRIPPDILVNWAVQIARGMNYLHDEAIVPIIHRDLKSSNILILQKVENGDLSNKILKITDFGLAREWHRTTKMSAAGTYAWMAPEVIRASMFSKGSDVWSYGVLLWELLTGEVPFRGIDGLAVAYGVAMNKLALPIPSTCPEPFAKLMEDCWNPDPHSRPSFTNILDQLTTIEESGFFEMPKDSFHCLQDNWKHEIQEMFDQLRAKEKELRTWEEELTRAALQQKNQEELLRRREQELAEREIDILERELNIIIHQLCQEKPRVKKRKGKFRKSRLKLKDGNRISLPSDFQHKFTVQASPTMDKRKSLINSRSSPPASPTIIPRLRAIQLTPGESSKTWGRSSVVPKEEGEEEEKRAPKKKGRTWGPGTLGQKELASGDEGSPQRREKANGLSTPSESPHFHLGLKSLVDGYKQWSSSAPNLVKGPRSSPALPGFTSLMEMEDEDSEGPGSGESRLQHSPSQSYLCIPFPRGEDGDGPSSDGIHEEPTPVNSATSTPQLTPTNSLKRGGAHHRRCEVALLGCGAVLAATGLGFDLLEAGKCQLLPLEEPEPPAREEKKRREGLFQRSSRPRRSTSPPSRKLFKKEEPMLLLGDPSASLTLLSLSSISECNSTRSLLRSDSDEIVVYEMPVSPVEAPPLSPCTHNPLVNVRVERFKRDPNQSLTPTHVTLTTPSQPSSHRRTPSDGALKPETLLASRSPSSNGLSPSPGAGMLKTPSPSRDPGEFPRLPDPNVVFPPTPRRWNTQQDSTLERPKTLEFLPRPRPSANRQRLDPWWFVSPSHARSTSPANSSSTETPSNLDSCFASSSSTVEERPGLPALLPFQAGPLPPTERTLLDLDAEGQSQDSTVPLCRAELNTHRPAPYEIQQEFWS
Chain of UniProt Q04206 (whole entry, looked up): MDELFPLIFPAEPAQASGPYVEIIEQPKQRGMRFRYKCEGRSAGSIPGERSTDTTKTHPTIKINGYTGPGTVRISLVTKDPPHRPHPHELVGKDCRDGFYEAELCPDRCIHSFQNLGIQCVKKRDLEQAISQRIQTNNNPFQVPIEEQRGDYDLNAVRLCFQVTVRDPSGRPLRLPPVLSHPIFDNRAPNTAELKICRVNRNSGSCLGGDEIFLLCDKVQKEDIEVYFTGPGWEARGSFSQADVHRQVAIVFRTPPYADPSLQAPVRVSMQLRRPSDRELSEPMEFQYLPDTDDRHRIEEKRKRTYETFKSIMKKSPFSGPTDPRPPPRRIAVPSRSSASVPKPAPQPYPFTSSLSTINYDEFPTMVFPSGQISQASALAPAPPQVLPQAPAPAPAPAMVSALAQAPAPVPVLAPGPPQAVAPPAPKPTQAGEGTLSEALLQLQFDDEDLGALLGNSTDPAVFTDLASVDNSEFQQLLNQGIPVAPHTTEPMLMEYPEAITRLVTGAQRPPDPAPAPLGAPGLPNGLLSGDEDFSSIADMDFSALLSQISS
Chain of UniProt Q96NY8 (whole entry, looked up): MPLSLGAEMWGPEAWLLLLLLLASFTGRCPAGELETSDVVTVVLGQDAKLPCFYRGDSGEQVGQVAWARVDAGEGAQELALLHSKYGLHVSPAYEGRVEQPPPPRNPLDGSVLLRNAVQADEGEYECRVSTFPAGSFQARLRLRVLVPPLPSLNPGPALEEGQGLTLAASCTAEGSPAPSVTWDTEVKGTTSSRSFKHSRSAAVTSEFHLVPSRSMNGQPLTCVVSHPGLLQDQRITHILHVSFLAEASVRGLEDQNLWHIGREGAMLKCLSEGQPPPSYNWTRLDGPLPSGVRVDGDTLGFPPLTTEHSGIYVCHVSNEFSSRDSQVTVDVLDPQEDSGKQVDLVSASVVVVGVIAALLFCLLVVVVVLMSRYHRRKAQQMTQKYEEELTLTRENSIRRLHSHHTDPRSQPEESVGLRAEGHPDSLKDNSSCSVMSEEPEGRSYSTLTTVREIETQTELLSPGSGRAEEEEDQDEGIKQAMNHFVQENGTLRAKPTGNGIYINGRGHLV
Chain of UniProt Q9GZQ4 (whole entry, looked up): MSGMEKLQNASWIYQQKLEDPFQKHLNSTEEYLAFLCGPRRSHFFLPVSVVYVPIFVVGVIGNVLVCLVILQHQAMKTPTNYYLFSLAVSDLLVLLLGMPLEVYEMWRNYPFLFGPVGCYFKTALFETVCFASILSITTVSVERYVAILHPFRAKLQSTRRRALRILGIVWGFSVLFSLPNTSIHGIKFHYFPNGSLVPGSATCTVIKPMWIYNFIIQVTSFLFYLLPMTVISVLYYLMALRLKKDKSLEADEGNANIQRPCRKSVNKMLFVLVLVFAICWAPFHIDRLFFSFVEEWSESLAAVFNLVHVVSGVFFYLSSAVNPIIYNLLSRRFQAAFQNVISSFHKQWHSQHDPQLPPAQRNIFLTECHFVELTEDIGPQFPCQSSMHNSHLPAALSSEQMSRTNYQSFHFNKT

SMILES = CC(C)(C)[C@]1(O)CCN2C[C@H]3c4ccccc4CCc4cccc(c43)[C@@H]2C1; target = TMEM97; assay = ligand displacement, radioligand; quantity = Ki; result = 1740 nM
SMILES = COc1ccc(C(=O)Nc2ccc3c(c2)C=CCP(=O)(O)O3)cc1; target = CA12; assay = enzyme activity, inhibitor, stopped-flow; quantity = Ki; result = 8.1 nM
SMILES = CC(C)(CN)CNCc1nc2ccccc2n1CCOc1ccccc1; target = Penicillin-binding protein 2X; assay = binding, MST; quantity = Kd; result = 790000 nM
SMILES = CC[C@H](C)[C@H](NC(=O)[C@H](CCC(N)=O)NC(=O)[C@H](CCC(=O)O)NC(=O)[C@H](CCC(=O)O)NC(=O)[C@H](CCCCN)NC(=O)[C@@H]1CCCN1)C(=O)NCC(=O)N[C@@H](CCCCN)C(=O)O; target = sapA; assay = binding; quantity = Kd; result = 3.6 nM
SMILES = O=C(Nc1cccc(CN2CCN(C(=O)c3ccccc3)CC2)c1)c1cccs1; target = PFF0160c; assay = enzyme activity, inhibitor, absorbance; quantity = IC50; result = 1430 nM
SMILES = CN[C@H]1CC[C@@H](c2ccc(Cl)c(Cl)c2)c2ccccc21; target = TMEM97; assay = ligand displacement, radioligand; quantity = Ki; result = 2030 nM
SMILES = CC(Oc1ccc(C(=O)c2ccc(F)cc2)cc1)C(=O)N1CCc2ccccc21 (stereo not drawn); target = PFF0160c E182D; assay = enzyme activity, inhibitor, absorbance; quantity = IC50; result = 483 nM
SMILES = CCCC[C@@H]1NC(=O)[C@H](Cc2ccc(O)cc2)NC(=O)[C@@H]2CCCN2C(=O)[C@H](CC(=O)O)NC(=O)[C@H](C)NC(=O)[C@H](Cc2ccccc2)NC(=O)[C@@H]2CSCCC(=O)N3CN(CN(C3)C(=O)CCSC[C@@H](C(=O)N[C@@H](C)C(N)=O)NC1=O)C(=O)CCSC[C@H](NC(C)=O)C(=O)N[C@@H](CC(C)(C)C)C(=O)N1CCC[C@H]1C(=O)N[C@@H](CCC(=O)O)C(=O)N[C@H](CCCCNC(=O)CCc1cn(CCOCCOCCOCCOCCOCCC(=O)NCCCC[C@H]3NC(=O)[C@H](Cc4cccc5ccccc45)NC(=O)[C@@H]4CCCN4C(=O)[C@@H](NC(C)=O)CSCCC(=O)N4CN5CN(C4)C(=O)CCSC[C@H](NC3=O)C(=O)N[C@@H](CCSC)C(=O)N[C@@H](CCCCNC(=N)N)C(=O)N[C@@H](Cc3c[nH]cn3)C(=O)N[C@@H](Cc3c[nH]c4ccccc34)C(=O)N[C@@H](CO)C(=O)N[C@@H]([C@@H](C)O)C(=O)N3CCC[C@H]3C(=O)N3C[C@H](O)C[C@H]3C(=O)N[C@@H](Cc3c[nH]c4ccccc34)C(=O)N[C@H](C(N)=O)CSCCC5=O)nn1)C(=O)N1CCC[C@H]1C(=O)N[C@@H](Cc1ccc(O)cc1)C(=O)N2; target = Nectin-4 (Homo sapiens, UniProt Q96NY8); assay = binding, SPR; quantity = Kd; result = 0.7 nM
SMILES = CSCC[C@H](NC(=O)[C@H](C)NC(=O)[C@H](CCCNC(=N)N)NC(=O)[C@H](Cc1ccc(O)cc1)NC(=O)[C@H](CC(N)=O)NC(=O)[C@H](Cc1ccccc1)NC(=O)[C@H](CCCNC(=N)N)NC(=O)[C@H](CCCCN)NC(=O)[C@H](CCC(N)=O)NC(=O)[C@H](CC(C)C)NC(=O)[C@H](CO)NC(=O)[C@@H](NC(=O)[C@H](C)N)[C@@H](C)O)C(=O)N[C@@H](CC(C)C)C(=O)N[C@@H](CC(C)C)C(=O)O; target = Apelin receptor (APLNR, Homo sapiens, UniProt P35414); assay = calcium signal, agonist, fluorescence; quantity = EC50; result = 756 nM
SMILES = O=C(Nc1ccc(Br)cc1)Nc1ccc2c(c1)C=CCP(=O)(O)O2; target = CA1 (Homo sapiens, UniProt P00915); assay = enzyme activity, inhibitor, stopped-flow; quantity = Ki; result = > 10000 nM
SMILES = Cc1[nH]c2ccc(-c3ccccc3)cc2c(=O)c1Br; target = PFF0160c E182D; assay = enzyme activity, inhibitor, absorbance; quantity = IC50; result = > 10000 nM
SMILES = CCOC(=O)N[C@@H](CCCNC(=N)N)C(=O)N[C@@H](CCC(N)=O)C(=O)N[C@@H](Cc1ccccc1)C(=O)N[C@@H](CCCNC(=N)N)C(=O)c1nc2ccccc2s1; target = TMPRSS13 (Homo sapiens, UniProt Q9BYE2); assay = cell-free assay; quantity = Ki; result = 12 nM
SMILES = CC(C)C[C@H](NC(=O)[C@@H](NC(=O)[C@H](C)N)C(C)C)C(=O)N[C@@H](CO)C(=O)NCC(=O)N[C@@H](CC(C)C)C(=O)N1CCC[C@H]1C(=O)N[C@@H](CCCCN)C(=O)N[C@@H](CCC(=O)O)C(=O)N[C@@H](CCC(=O)O)C(=O)N[C@@H](CCC(N)=O)C(=O)O; target = sapA; assay = binding; quantity = Kd; result = 6.1 nM
SMILES = [2H]c1c([2H])c([C@]2([2H])CCCN2C(=O)C(C)(C)Oc2ccc3cn[nH]c3c2)c([2H])c([2H])c1C([2H])([2H])[2H]; target = MAP3K9 (Homo sapiens, UniProt P80192); assay = binding, competition with immobilised ligand; conditions = 1 µM; quantity = remaining binding; result = 100%
SMILES = COc1cc(C(F)(F)F)c(OC)cc1C1CCCNC1 (stereo not drawn); target = Htr2a (Mus musculus, UniProt P35363); assay = G protein activation, agonist, BRET; quantity = EC50; result = 19.1 nM
SMILES = O=C(Nc1cccc(Cl)c1Cl)Nc1ccnc2ccccc12; target = PFF0160c E182D; assay = enzyme activity, inhibitor, absorbance; quantity = IC50; result = > 10000 nM
SMILES = CC/C(=C(\c1ccccc1)c1ccc(OCCN(C)C)cc1)c1ccccc1; target = TMEM97; assay = ligand displacement, radioligand; quantity = Ki; result = 407 nM
SMILES = C[C@@H](O)[C@H](NC(=O)CNC(=O)[C@H](Cc1ccc(O)cc1)NC(=O)[C@H](CCCNC(=N)N)NC(=O)[C@@H](N)CCCNC(=N)N)C(=O)O; target = sapA; assay = binding; quantity = Kd; result = 5.4 nM
SMILES = COC(=O)C[C@@H]1N=C(c2cc3ccccc3c3ccccc23)c2cc(OC)ccc2-n2c(C)nnc21; target = Bromodomain-containing protein 2, BD2 (BRD2, Homo sapiens, UniProt P25440); assay = binding, SPR; quantity = Kd; result = 9460 nM
SMILES = O=C(Nc1ccc(I)cc1)Nc1ccc2c(c1)C=CCP(=O)(O)O2; target = CA12; assay = enzyme activity, inhibitor, stopped-flow; quantity = Ki; result = > 10000 nM
SMILES = NC(=O)CC[C@H](NC(=O)[C@H](CCC(=O)O)NC(=O)[C@H](CCC(=O)O)NC(=O)[C@H](CO)NC(=O)[C@@H]1CCCN1)C(=O)O; target = sapA; assay = binding; quantity = Kd; result = 339 nM
SMILES = CN1CCN(C2=Nc3cc(Cl)ccc3Nc3ccccc32)CC1; target = TMEM97; assay = ligand displacement, radioligand; quantity = Ki; result = 8800 nM
SMILES = CC(C)=CCC[C@](C)(O)[C@H]1CC[C@]2(C)[C@@H]1[C@H](O)C[C@@H]1[C@@]3(C)CC[C@H](O)C(C)(C)[C@@H]3[C@@H](O[C@@H]3O[C@H](CO)[C@@H](O)[C@H](O)[C@H]3O)C[C@]12C; target = RELA (Homo sapiens, UniProt Q04206); assay = binding, BLI; quantity = Kd; result = 1020 nM
SMILES = Cc1nc(-c2nc(NCc3ccncc3)ncc2-c2ccsc2)sc1C; target = PFF0160c; assay = enzyme activity, inhibitor, absorbance; quantity = IC50; result = > 10000 nM
SMILES = N=C(N)NCCC[C@H](N)C(=O)N[C@@H](CO)C(=O)N[C@@H](Cc1ccc(O)cc1)C(=O)N[C@@H](CCCCN)C(=O)N[C@@H](CCC(N)=O)C(=O)O; target = sapA; assay = binding; quantity = Kd; result = 258 nM
SMILES = O=C(Nc1cccc(F)c1)Nc1ccc2c(c1)C=CCP(=O)(O)O2; target = CA2 (Homo sapiens, UniProt P00918); assay = enzyme activity, inhibitor, stopped-flow; quantity = Ki; result = > 10000 nM
SMILES = N=C(N)NCCC[C@H](NC(=O)[C@H](Cc1ccccc1)NC(=O)[C@H](CCC(N)=O)NC(=O)OCc1ccccc1)C(=O)c1nccs1; target = Procathepsin L (CTSL, Homo sapiens, UniProt P07711); assay = cell-free assay; quantity = Ki; result = > 10000 nM
SMILES = N#Cc1c(F)cccc1N1CCN(c2ccc(O)cc2)CC1; target = PFF0160c; assay = enzyme activity, inhibitor, absorbance; quantity = IC50; result = 7230 nM
SMILES = CC(C)C[C@H](NC(=O)[C@H](Cc1ccccc1)NC(=O)[C@H](Cc1ccc(O)cc1)NC(=O)CNC(=O)[C@H](CCCCN)NC(=O)[C@H](CO)NC(=O)[C@H](CCC(N)=O)NC(=O)CNC(=O)[C@@H](NC(=O)[C@H](CO)NC(=O)[C@@H]1CCCN1C(=O)[C@H](CO)NC(=O)[C@H](CCC(N)=O)NC(=O)[C@H](Cc1ccc(O)cc1)NC(=O)[C@H](CCC(=O)O)NC(=O)[C@H](C)NC(=O)[C@H](CCCCN)NC(=O)[C@@H](N)Cc1ccccc1)C(C)C)C(=O)N[C@@H](Cc1ccccc1)C(=O)N[C@@H](CCCNC(=N)N)C(=O)N1CCC[C@H]1C(=O)N[C@@H](CCCNC(=N)N)C(=O)N[C@@H](CC(N)=O)C(N)=O; target = NMUR2 (Homo sapiens, UniProt Q9GZQ4); assay = β-arrestin recruitment, agonist; quantity = EC50; result = 1.07 nM
SMILES = O=C(Nc1ccc2c(c1)C=CCP(=O)(O)O2)c1ccc([N+](=O)[O-])cc1; target = CA12; assay = enzyme activity, inhibitor, stopped-flow; quantity = Ki; result = 6.7 nM
SMILES = CCOc1cccc(=O)c2c(C)n(Cc3ccc(Cl)cc3)c(C)c12; target = PFF0160c E182D; assay = enzyme activity, inhibitor, absorbance; quantity = IC50; result = 1560 nM
SMILES = CN(CCc1ccc(Cl)c(Cl)c1)CCN1CCCC1; target = TMEM97; assay = ligand displacement, radioligand; quantity = Ki; result = 16 nM
SMILES = FC(F)(F)c1ccc(OCCn2c(CNCC34CC5CC(CC(C5)C3)C4)nc3ccccc32)cc1; target = Penicillin-binding protein 2X; assay = binding, MST; quantity = Kd; result = 90000 nM

Excerpt of the above:
SMILES = O=C(Nc1ccc(Br)cc1)Nc1ccc2c(c1)C=CCP(=O)(O)O2; target = CA1 (Homo sapiens, UniProt P00915); assay = enzyme activity, inhibitor, stopped-flow; quantity = Ki; result = > 10000 nM
SMILES = Cc1[nH]c2ccc(-c3ccccc3)cc2c(=O)c1Br; target = PFF0160c E182D; assay = enzyme activity, inhibitor, absorbance; quantity = IC50; result = > 10000 nM
SMILES = CCOC(=O)N[C@@H](CCCNC(=N)N)C(=O)N[C@@H](CCC(N)=O)C(=O)N[C@@H](Cc1ccccc1)C(=O)N[C@@H](CCCNC(=N)N)C(=O)c1nc2ccccc2s1; target = TMPRSS13 (Homo sapiens, UniProt Q9BYE2); assay = cell-free assay; quantity = Ki; result = 12 nM
SMILES = CC(C)C[C@H](NC(=O)[C@@H](NC(=O)[C@H](C)N)C(C)C)C(=O)N[C@@H](CO)C(=O)NCC(=O)N[C@@H](CC(C)C)C(=O)N1CCC[C@H]1C(=O)N[C@@H](CCCCN)C(=O)N[C@@H](CCC(=O)O)C(=O)N[C@@H](CCC(=O)O)C(=O)N[C@@H](CCC(N)=O)C(=O)O; target = sapA; assay = binding; quantity = Kd; result = 6.1 nM
